Assay results from different studies.
Every numbered part comes from another study and shows a few of its results, in no order.

Study 1 — technique: universal PBM; molecule type: double-stranded DNA, one strand shown; sample: in vitro; tested at: 600 nM; reading: higher = stronger binding
Target: Sal-like protein 4, full length isoform A (SALL4, Homo sapiens, UniProt Q9UJQ4, residues 1-1053)
Chain of UniProt Q9UJQ4 (whole entry, looked up): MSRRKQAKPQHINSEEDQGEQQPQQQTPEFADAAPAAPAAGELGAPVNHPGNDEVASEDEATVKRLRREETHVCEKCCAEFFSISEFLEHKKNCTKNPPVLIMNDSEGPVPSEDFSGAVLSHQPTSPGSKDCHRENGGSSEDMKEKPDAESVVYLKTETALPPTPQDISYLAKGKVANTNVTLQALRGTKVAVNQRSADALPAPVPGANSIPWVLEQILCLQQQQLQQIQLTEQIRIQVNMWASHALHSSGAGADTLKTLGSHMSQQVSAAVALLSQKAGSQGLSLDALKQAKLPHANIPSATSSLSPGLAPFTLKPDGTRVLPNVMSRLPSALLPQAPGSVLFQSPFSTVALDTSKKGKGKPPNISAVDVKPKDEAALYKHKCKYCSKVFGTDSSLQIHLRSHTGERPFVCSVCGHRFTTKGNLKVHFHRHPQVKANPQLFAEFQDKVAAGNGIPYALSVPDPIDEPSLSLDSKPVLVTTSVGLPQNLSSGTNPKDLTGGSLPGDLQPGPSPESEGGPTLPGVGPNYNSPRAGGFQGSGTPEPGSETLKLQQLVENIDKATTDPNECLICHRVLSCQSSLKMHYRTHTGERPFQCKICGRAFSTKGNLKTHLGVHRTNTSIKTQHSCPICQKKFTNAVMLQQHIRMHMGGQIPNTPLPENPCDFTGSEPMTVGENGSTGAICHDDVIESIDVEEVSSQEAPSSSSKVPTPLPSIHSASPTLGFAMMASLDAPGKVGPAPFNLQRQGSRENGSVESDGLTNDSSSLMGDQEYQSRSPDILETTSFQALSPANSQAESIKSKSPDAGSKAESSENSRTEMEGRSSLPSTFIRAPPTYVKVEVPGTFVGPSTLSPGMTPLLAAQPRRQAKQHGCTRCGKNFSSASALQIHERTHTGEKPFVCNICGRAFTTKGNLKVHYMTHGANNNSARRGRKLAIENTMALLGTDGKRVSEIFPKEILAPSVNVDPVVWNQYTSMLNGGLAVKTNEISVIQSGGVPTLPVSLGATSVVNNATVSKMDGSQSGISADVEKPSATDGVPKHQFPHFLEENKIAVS
Setting: 8-mer, flanks averaged, mean of replicates
| Sequence | E-score |
| --- | --- |
| CCGATGGC | -0.312 |
| TTGGCCAA | -0.141 |
| ATGACCCC | -0.16 |
| AAGTACGA | 0.19 |

Study 2 — technique: RNAcompete; molecule type: RNA; sample: in vitro; tested at: 20 nM; setting: 7-mer, probes averaged, single round; baseline: mean of 7-mers; reading: higher = stronger binding
Target: PABPC1L2, full length, GST fusion (mouse, UniProt A0ABA7IW68)
Construct (chain): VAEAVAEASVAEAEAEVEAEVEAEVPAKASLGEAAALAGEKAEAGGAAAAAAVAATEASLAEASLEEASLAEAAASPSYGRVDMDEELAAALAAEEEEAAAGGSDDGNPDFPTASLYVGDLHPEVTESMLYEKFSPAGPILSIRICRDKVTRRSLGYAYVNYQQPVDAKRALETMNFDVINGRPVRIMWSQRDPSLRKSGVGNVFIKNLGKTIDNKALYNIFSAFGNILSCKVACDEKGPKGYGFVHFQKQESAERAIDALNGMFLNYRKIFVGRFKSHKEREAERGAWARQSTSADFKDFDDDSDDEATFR
| Sequence | 7-mer Z-score |
| --- | --- |
| CAAAUCG | 0.169 |
| AACGCCA | 0.017 |
| AGUUACC | -0.108 |
| CACAAUA | 0.111 |
| CUGAGGA | 0.182 |

Study 3 — technique: protein binding microarray; molecule type: double-stranded DNA, one strand shown; sample: in vitro; tested at: not given; baseline: not given; reading: higher = stronger binding
Target: Histone acetyltransferase KAT6A, winged helix 2, GST fusion (KAT6A, Homo sapiens, UniProt Q92794, residues 85-181)
Setting: 8-mer, flanks averaged, mean of 2 arrays, mostly near background
Residues (chain): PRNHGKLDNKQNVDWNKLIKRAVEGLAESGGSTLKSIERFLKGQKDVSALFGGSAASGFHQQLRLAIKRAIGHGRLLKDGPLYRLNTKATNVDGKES
| Sequence | E-score |
| --- | --- |
| CCGGATCC | 0.0198 |
| GGTCCCCA | 0.0404 |
| CCCTTATA | -0.177 |

Mixed results
| Substance | target | test | test system | setting | how to read | measurement | result |
| --- | --- | --- | --- | --- | --- | --- | --- |
| PhoQ, residues 284 288 289 292 302 303 NLSRDF | PhoP, residues 12 14 15 18 19 QYFSL (Escherichia coli, UniProt P23836) | Sort-seq, measured: YFP reporter | E. coli | PhoQ-PhoP variant library, added: 10 µM Mg2+ | baseline: high Mg2+ state, higher = stronger signaling | fold induction | 3.41 |

Excerpt of the above (mixed results):
| Substance | target | test | test system | setting | how to read | measurement | result |
| --- | --- | --- | --- | --- | --- | --- | --- |
| PhoQ, residues 284 288 289 292 302 303 NLSRDF | PhoP, residues 12 14 15 18 19 QYFSL (Escherichia coli, UniProt P23836) | Sort-seq, measured: YFP reporter | E. coli | PhoQ-PhoP variant library, added: 10 µM Mg2+ | baseline: high Mg2+ state, higher = stronger signaling | fold induction | 3.41 |
